Assay results from different studies.
Protocols differ between the studies behind these lines. Several values in a cell are separate wells, animals, samples, runs or records. ± marks the error that the study gave.

Compound | cell line | assay | conditions | scale | measurement | value
CN(C)CC(=O)N1CCC(c2ccc(NC(=O)c3nc(C#N)c[nH]3)c(C3=CCCCC3)c2)CC1 | hiPSC cardiomyocytes | CellTiter-Glo | concentration not given, 24 h | relative to: vehicle | ATP level | 85%
Cc1ccccc1Cn1cc(-c2cccc(NC(=O)Nc3ccc(F)cc3)c2)nn1 | Huh-7 | RT-PCR, measured: H2AX | 10 µM, 72 h |  | mRNA level | decreased
O=C(C[C@@H](C(F)F)n1ccc(F)n1)N1CCC(O)(Cn2cnc3c(cnn3-c3ccc(F)cc3)c2=O)CC1 | CHP-212 resistant cells (pooled) | annexin V-PI flow cytometry | 0.1 µM, 48 h |  | viable cells (annexin V-/PI-) | 85.2% and 83.7% and 86.2%
Cn1sc(=O)n(Cc2ccccc2)c1=O | HeLa expressing Ub(G76V)-GFP | Ub(G76V)-GFP degradation, cycloheximide chase | 12 µM |  | inhibition | 98%
O=C(/C=C/C=C/C=C/C1CCCCC1)NC1=C[C@@](O)(/C=C/C=C/C=C/C(=O)NC2=C(O)CCC2=O)[C@@H]2O[C@@H]2C1=O | HSC-3 | cell growth, CellTiter-Glo | 78 h |  | GI50 | 12.6 µM
Cc1cn([C@@H]2O[C@H](CO)[C@@H](O)[C@H]2O)c(=O)nc1N | HBL-1 |  | 0.1 µM, 120 h |  | viability | 87.1%
Nc1ncnc2c1cnn2-c1ccccc1 | HeLa expressing Ub(G76V)-GFP | Ub(G76V)-GFP degradation, cycloheximide chase | 12 µM |  | inhibition | 5%
CCn1cc(-c2cc(Cn3ccnc3)cc3c2CCN([C@H](c2cc(OC)ccn2)C2CC2)C3=O)c(C(F)(F)F)n1 | OCI-Ly7 | cell growth, inhibitor | 120 h |  | EC50 | 16.1 µM
Cc1cc(C2CCCCC2)n(O)c(=O)c1.NCCO | BT-12 | cell viability, MTT | 10 µM, 72 h |  | inhibition | 86.1%
CC(=O)c1ccc(N2CCOCC2)cc1O | HeLa expressing Ub(G76V)-GFP | Ub(G76V)-GFP degradation, inhibitor, cycloheximide chase | 12 µM |  | inhibition | -7%
CN1CCC(CNc2ccc3ncc(-c4cccc(OC(F)(F)F)c4)n3n2)CC1 | BT-12 | cell viability, MTT | 10 µM, 72 h |  | inhibition | 94.8%
CCCCN1C[C@H](O)[C@@H](O)[C@@H](O)[C@H]1CO | sample H patient fibroblasts | Gb3 level lowering, LC-MS/MS, measured: Gb3 d18:1/16:0 | 216 h |  | IC50 | 12.4 µM
CCOC(=O)Nc1cc(-c2ccc(C)c(NS(C)(=O)=O)c2)nn2c(C)nnc12 | HBL-1 |  | 0.5 µM, 120 h |  | viability | 37.9%
COc1cc(/C=C/C(=O)N2CCC=CC2=O)cc(OC)c1OC | MDA-MB-468 | qRT-PCR, measured: GGT5 | 30 µM, 6 h | relative to: time zero | mRNA level | 106 ± 2.6%
Cc1cc(=O)oc2cc(NC(=O)CCCCCCC(=O)NO)ccc12 | HBL-1 |  | 1 µM, 120 h |  | viability | 15.7%
CCC/N=C1\S/C(=C\c2ccc(OC[C@H](O)CO)c(Cl)c2)C(=O)N1c1ccccc1C | human primary astrocytes | single-cell RNA-seq, measured: CSF2 mRNA | concentration not given, 48 h, added: cytokine stimulation | relative to: cytokine alone | log2 fold change | 0.544
O=C([O-])CN(CCN(CC(=O)[O-])Cc1cc(CCC(=O)NCCCCCC(=O)NCCCC[C@H](NC(=O)N[C@@H](CCC(=O)O)C(=O)O)C(=O)O)ccc1[O-])Cc1cc(CCC(=O)O)ccc1[O-].[68Ga+3].[OH3+] | LNCaP |  | 25 nM, 1 h, 4 °C |  | surface-bound activity | 0.34 ± 0.21 %AD/mg protein
COc1cnc2cccc(N3CCc4c(cc(Cn5ccnc5C)cc4-c4cn(C)nc4C(F)(F)F)C3=O)c2c1 | JHOC5 | cell growth | 120 h |  | EC50 | 30.6 µM
Cn1cc(-c2ccc(-c3cncc(Cl)c3N3CCC4(CCNC4=O)CC3)cc2)cn1 | COLO 205 | gene expression, microarray, measured: CYP27B1 mRNA | concentration not given, 6 h | relative to: untreated cells | log2 fold change | 1.86
C#CCNS(=O)(=O)c1ccc(CCN(Cc2cc(Cl)ccc2OCCC)C(=O)c2ccc(F)cc2)cc1 | J774A.1 | ELISA | concentration not given, 16 h, added: LPS 1 µg/mL |  | TNF-alpha level | no inhibition
CC1(C)CC[C@]2(C(=O)O)CC[C@]3(C)[C@H](C(=O)C=C4[C@@]5(C)C=C(C#N)C(=O)C(C)(C)[C@@H]5CC[C@]43C)[C@@H]2C1 | SH-SY5Y Neh2-luc reporter |  | concentration not given, 3 h | relative to: background | reporter activation | > 20 fold
Cc1cc(Nc2ncc(Cl)c(Nc3ccccc3S(=O)(=O)C(C)C)n2)c(OC(C)C)cc1C1CCNCC1 | CLB-BAR | phosphoproteomics LC-MS/MS, measured: GAB1 phosphorylation | 200 nM, 60 min | relative to: untreated | log2 fold change | -6.24

Compound | cell line | assay | conditions | scale | measurement | value
O=C1NC(=O)/C(=C/c2ccc3nccnc3c2)S1 | HeLa expressing Ub(G76V)-GFP | Ub(G76V)-GFP degradation, cycloheximide chase | 12 µM |  | inhibition | 7%
O=P(O)(O)C(O)(Cn1ccnc1)P(=O)(O)O | MDA-MB-231 | AlamarBlue | 1.9 µM, 48 h | relative to: control | viability | 101 ± 2%
CCN1CCN(Cc2ccc(Nc3ncc(F)c(-c4cc(F)c5nc(C)n(C(C)C)c5c4)n3)nc2)CC1.CS(=O)(=O)O | BT-12 | cell viability, MTT | 10 µM, 72 h |  | inhibition | 80.6%
Cn1cc(Nc2nccc(-c3ccc4c(c3)CN(C3COC3)CC[C@H]4NC(=O)c3cn(C(C)(C)C)nn3)n2)cn1 | mouse splenic B cells | measured: ErbB4 signalling | 30 mg/kg, IgD-activated in vivo | relative to: vehicle, direction not given | pathway activation z-score | 3
CCn1cc(-c2cc(Cn3ccoc3=N)cc3c2CCN([C@@H](C)c2cc(OC)ccn2)C3=O)c(C(F)(F)F)n1 | KNS-62 | cell growth, inhibitor | 120 h |  | EC50 | 6.94 µM
O=C(Nc1c[nH]nc1-c1nc2ccc(CN3CCOCC3)cc2[nH]1)NC1CC1 | BT-12 | cell viability, MTT | 10 µM, 72 h |  | inhibition | 94.1%
CC(C)(C)NC(=O)C[C@H](NC(=O)C(=O)c1c[nH]c2ccccc12)C(=O)NCc1cccc(B(O)O)c1 | MM1.S | cell viability, CellTiter-Glo | 72 h |  | EC10 | 0.01 µM
Cc1cccc(-c2[nH]c(CNc3ccccc3F)nc2-c2ccc3ncnn3c2)n1 | bone marrow CD138+ myeloma cells | XTT | 0.2 µM, mean of three patients |  | viability | 98%
CC[S+]([O-])c1nc(-c2cccc(OCc3ccccc3)c2)cc(C(F)(F)F)n1 (centres unmarked) | HeLa Kyoto | RelA nuclear import, high content imaging | 0.16 µM, 3 h, added: 1 µM PMA, 60 min |  | cells with nuclear RelA | 69.8% and 87.2%
CC(C)C[C@H](NC(=O)[C@H](Cc1ccccc1)NC(=O)c1cnccn1)B(O)O | BT-12 | cell viability, MTT | 10 µM, 72 h |  | inhibition | 96.3%
CCCOc1ccn2c(C(C)=O)cc(-c3ccccc3S(C)(=O)=O)c2c1 | HBL-1 |  | 0.1 µM, 120 h |  | viability | 110%
Cc1c(C(=O)O)ccc2c3n(nc12)[C@@H]1[C@H](C3)N(CC2CC2)[C@@]2(C(=O)Nc3cc(Cl)ccc32)[C@H]1c1cccc(Cl)c1F | SNU-719 | cell proliferation, alamarBlue |  |  | IC50 | 0.0006 µM
NC(=O)c1cccc(N)c1 | HBL-1 |  | 0.1 µM, 120 h |  | viability | 98.8%
Cc1cncc2cccc(S(=O)(=O)N3CCCN(C(=O)CN)C[C@@H]3C)c12 | HeLa expressing Ub(G76V)-GFP | Ub(G76V)-GFP degradation, cycloheximide chase | 12 µM |  | inhibition | 20%
CC/C(=N\NC(=O)NCc1cccc(O)c1)c1ccc(O)c(C)c1O | SK-OV-3 | gene expression, microarray, measured: THBD | 10 µM, 24 h | relative to: DMSO | log ratio | -3.02
CC(C)NCC(O)c1ccc(O)c(O)c1 (centres unmarked) | mouse ventricular cardiomyocytes |  | dose not given, 0.259 s |  | sarcomere length | 1.8 µm
CCCc1cc(C)[nH]c(=O)c1CNC(=O)c1cc(-c2ccnc(N3CCN(C)CC3)c2)cc2c1cnn2C(C)C | HBL-1 |  | 0.1 µM, 120 h |  | viability | 111%
COC(=O)Nc1nc2ccc(C(=O)c3cccs3)cc2[nH]1 | BT-12 | cell viability, MTT | 10 µM, 72 h |  | inhibition | 80.6%
O=C([C@@H](Cc1cccc(C(F)(F)F)c1)NS(=O)(=O)c1cc(F)c2c(c1)CCNC2)N1CCCC1 | HBL-1 |  | 0.1 µM, 120 h |  | viability | 102%
CCOc1nc(-c2cccc(O)c2)cc(-c2cc3cc(Cl)ccc3nc2N2CCOCC2)c1C#N | NFS-60 | MTT |  | relative to: WI-38 EC50 over NFS-60 IC50 | selectivity ratio | 0.257
Nc1ccn([C@@H]2O[C@H](CO)[C@@H](O)C2(F)F)c(=O)n1 | HBL-1 |  | 0.1 µM, 120 h |  | viability | 5.65%
CCN(CC)C(=O)c1ccc(Nc2nc(OCC3CCCCC3)c3[nH]cnc3n2)cc1 | HeLa expressing Ub(G76V)-GFP | Ub(G76V)-GFP degradation, cycloheximide chase | 12 µM |  | inhibition | 38%
